Assay results of several laboratories.
Parts stem from different laboratories: compare values within a part only.
Chain of UniProt O00506 (whole entry, looked up): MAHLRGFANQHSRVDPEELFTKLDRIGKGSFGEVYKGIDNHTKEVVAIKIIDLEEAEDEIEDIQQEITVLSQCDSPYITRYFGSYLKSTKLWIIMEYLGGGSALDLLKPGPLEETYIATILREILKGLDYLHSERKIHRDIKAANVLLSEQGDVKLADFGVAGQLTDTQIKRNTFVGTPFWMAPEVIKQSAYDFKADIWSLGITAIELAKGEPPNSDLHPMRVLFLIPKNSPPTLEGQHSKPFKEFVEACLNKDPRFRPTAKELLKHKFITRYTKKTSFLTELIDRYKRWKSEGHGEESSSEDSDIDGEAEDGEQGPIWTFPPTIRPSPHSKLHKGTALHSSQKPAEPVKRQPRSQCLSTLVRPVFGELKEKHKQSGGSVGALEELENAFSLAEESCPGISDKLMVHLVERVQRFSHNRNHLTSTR
Chain of UniProt Q8NG66 (whole entry, looked up): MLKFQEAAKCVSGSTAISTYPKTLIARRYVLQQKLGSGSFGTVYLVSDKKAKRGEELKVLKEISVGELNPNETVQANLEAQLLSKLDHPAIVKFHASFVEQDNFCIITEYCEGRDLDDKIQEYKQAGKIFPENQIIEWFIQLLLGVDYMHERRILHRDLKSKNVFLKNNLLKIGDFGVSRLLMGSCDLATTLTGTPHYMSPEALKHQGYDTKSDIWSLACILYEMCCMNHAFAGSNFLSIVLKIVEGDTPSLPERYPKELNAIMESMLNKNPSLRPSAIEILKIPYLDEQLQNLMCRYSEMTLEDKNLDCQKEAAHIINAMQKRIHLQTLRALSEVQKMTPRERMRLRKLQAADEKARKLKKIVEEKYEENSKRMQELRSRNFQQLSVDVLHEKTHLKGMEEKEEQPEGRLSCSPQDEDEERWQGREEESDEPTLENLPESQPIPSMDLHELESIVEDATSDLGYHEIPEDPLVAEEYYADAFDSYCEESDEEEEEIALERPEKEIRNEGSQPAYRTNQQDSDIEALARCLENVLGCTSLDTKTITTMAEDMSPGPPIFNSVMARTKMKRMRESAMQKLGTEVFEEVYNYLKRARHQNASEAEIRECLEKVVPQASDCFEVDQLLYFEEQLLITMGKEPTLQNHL
Chain of UniProt P42679 (whole entry, looked up): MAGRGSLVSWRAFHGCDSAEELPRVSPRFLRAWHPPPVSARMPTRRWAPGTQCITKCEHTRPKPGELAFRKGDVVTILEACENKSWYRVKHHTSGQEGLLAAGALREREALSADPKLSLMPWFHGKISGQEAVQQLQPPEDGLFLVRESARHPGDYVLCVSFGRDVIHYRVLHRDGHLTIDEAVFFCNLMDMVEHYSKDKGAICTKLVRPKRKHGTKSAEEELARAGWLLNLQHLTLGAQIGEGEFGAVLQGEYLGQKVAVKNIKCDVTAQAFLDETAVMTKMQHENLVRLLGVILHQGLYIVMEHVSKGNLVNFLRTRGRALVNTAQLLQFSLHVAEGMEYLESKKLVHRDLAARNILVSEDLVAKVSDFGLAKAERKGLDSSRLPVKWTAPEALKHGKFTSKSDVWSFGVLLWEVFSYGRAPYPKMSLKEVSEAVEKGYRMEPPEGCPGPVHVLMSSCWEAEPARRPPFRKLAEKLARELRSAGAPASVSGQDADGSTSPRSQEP
Chain of UniProt P51817 (whole entry, looked up): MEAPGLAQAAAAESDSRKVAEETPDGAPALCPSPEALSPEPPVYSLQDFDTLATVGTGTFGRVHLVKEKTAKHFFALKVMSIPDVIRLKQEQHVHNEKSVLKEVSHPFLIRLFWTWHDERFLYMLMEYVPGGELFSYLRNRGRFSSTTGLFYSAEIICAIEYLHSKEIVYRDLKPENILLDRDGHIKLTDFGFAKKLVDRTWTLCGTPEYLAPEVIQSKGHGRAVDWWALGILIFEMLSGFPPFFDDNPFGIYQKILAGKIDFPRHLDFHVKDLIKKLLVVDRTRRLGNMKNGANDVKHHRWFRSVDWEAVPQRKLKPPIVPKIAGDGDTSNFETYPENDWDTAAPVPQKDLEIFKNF
Chain of UniProt Q9H2K8 (whole entry, looked up): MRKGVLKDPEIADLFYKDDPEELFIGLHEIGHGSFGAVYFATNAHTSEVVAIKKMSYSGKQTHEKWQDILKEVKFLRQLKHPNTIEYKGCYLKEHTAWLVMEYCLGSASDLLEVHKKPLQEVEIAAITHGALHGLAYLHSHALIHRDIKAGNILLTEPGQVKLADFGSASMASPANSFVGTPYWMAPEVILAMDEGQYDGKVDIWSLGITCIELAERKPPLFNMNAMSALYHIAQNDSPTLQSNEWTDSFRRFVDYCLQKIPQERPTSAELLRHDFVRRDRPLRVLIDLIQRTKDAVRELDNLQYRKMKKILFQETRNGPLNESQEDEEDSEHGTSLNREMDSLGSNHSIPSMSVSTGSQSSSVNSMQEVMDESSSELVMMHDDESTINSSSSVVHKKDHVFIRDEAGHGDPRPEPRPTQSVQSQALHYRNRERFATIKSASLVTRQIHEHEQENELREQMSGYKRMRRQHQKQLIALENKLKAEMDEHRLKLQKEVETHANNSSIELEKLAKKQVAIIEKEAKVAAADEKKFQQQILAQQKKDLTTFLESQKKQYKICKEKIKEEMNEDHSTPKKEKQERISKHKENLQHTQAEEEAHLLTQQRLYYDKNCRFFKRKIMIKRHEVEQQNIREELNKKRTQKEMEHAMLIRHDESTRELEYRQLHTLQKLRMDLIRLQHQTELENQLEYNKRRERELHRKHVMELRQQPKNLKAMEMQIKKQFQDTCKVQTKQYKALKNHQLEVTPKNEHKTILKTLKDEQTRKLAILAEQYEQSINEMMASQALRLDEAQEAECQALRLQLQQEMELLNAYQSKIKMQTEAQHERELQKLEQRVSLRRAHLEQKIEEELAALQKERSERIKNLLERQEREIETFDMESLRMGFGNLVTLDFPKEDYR
Chain of UniProt Q96RG2 (whole entry, looked up): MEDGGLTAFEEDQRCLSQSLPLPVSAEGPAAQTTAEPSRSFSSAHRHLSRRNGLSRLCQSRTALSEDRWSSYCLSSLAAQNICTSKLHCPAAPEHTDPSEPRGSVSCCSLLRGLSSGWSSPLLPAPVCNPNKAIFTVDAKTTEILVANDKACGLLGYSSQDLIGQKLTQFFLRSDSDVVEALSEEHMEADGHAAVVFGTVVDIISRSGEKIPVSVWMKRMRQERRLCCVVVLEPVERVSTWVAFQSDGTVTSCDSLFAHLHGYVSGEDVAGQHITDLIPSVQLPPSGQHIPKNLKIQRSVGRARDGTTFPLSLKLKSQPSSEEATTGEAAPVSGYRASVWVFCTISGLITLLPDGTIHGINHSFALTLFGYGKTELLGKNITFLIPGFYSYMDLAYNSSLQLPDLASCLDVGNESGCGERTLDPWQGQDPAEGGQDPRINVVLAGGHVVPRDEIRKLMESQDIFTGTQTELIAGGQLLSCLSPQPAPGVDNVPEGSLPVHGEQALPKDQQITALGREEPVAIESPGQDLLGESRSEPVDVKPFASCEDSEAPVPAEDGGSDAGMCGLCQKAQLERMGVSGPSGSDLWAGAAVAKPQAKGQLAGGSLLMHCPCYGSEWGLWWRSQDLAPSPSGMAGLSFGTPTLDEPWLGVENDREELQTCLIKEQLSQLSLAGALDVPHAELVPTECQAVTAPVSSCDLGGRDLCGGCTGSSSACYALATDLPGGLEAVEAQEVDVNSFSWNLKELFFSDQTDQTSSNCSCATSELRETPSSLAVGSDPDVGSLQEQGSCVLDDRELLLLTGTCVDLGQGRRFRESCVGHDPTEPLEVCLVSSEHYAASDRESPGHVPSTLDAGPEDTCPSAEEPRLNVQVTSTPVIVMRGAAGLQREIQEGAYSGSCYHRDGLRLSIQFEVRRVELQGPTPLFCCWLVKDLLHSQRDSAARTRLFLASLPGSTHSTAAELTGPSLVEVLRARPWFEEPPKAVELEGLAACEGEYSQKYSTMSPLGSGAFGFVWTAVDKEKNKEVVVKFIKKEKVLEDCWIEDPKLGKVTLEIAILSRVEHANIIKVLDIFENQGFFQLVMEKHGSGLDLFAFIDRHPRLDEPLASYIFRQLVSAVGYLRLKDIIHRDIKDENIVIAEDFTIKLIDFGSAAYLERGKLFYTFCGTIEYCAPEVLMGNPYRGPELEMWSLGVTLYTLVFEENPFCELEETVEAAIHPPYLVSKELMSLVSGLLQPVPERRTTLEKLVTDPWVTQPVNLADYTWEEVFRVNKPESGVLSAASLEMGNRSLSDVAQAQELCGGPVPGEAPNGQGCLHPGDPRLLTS
Chain of UniProt P09769 (whole entry, looked up): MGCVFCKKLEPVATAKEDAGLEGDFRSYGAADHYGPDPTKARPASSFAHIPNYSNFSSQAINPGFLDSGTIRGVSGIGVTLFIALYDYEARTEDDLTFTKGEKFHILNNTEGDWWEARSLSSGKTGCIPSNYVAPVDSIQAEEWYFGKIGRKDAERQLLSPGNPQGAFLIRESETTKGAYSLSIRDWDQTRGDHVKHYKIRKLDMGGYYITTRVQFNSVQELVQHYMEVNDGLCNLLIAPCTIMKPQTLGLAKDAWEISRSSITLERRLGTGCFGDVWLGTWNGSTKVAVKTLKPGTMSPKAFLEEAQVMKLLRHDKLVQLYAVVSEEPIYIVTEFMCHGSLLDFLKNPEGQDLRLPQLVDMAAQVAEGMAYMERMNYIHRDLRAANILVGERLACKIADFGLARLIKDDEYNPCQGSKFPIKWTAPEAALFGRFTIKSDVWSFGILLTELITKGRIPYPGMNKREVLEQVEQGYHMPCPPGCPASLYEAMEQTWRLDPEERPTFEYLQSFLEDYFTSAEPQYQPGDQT
Chain of UniProt Q00526 (whole entry, looked up): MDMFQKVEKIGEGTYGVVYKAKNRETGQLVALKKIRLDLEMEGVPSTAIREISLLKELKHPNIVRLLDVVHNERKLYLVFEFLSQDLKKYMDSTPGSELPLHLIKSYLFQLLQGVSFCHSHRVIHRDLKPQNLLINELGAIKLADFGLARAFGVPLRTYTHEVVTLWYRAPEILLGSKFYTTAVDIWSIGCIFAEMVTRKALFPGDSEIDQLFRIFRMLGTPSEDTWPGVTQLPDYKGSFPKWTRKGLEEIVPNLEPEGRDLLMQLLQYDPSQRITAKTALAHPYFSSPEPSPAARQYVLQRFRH

Block 1
SMILES: O=C1Nc2ccc(Br)cc2/C1=C/c1cc2c([nH]1)CCCC2
Effect on: enzyme activity
Action: inhibitor
Concentration: 0.5 µM
Baseline: control
Endpoint: remaining activity
Proto-oncogene tyrosine-protein kinase Src (SRC, Homo sapiens, UniProt P12931): 88.8%
Megakaryocyte-associated tyrosine-protein kinase (MATK, Homo sapiens, UniProt P42679): 94.2%
Tyrosine-protein kinase Fer (FER, Homo sapiens, UniProt P16591): 74.7%
Serine/threonine-protein kinase 25 (STK25, Homo sapiens, UniProt O00506): 102%
Serine/threonine-protein kinase MRCK alpha (CDC42BPA, Homo sapiens, UniProt Q5VT25): 81.9%
MAP/microtubule affinity-regulating kinase 3 (MARK3, Homo sapiens, UniProt P27448): 84.9%
Serine/threonine-protein kinase TAO3 (TAOK3, Homo sapiens, UniProt Q9H2K8): 75.3%
Serine/threonine-protein kinase Nek11 (NEK11, Homo sapiens, UniProt Q8NG66): 111%
PAS domain-containing serine/threonine-protein kinase (PASK, Homo sapiens, UniProt Q96RG2): 98.9%
LIM domain kinase 1 (LIMK1, Homo sapiens, UniProt P53667): 83%
RAC-alpha serine/threonine-protein kinase (AKT1, Homo sapiens, UniProt P31749): 99.8%
Tyrosine-protein kinase ITK/TSK (ITK, Homo sapiens, UniProt Q08881): 87.5%
ALK tyrosine kinase receptor (ALK, Homo sapiens, UniProt Q9UM73): 88.5%
Homeodomain-interacting protein kinase 1 (HIPK1, Homo sapiens, UniProt Q86Z02): 97.2%
Tyrosine-protein kinase Fyn (FYN, Homo sapiens, UniProt P06241): 87.5%
Vascular endothelial growth factor receptor 3 (FLT4, Homo sapiens, UniProt P35916): 56.1%
Cyclin-dependent kinase 3, with cyclin E (CDK3, Homo sapiens, UniProt Q00526): 93.2%
cAMP-dependent protein kinase catalytic subunit PRKX (PRKX, Homo sapiens, UniProt P51817): 97.2%
Insulin receptor (INSR, Homo sapiens, UniProt P06213): 85.8%
Serine/threonine-protein kinase N1 (PKN1, Homo sapiens, UniProt Q16512): 91.7%
Tyrosine-protein kinase Fgr (FGR, Homo sapiens, UniProt P09769): 67.7%

Block 2
Structure (SMILES): CC(C)n1cnc(-c2ccc(F)cc2)c1-c1ncc(C(=O)Nc2ccc(N3CCN(C)CC3)cc2)[nH]1
Endpoint: patients with TEAE
phase 2a trial; idiopathic pulmonary fibrosis patients; oral, 30 mg once daily, blood/lymphatic disorders, grade 1: 2%
phase 2a trial; idiopathic pulmonary fibrosis patients; oral, 60 mg once daily, ESR increased, grade 3: 0%
phase 2a trial; patients with idiopathic pulmonary fibrosis; dose not given, atopic dermatitis, grade 5, all arms: 0%
phase 2a trial; patients with idiopathic pulmonary fibrosis; dose not given, allergic conjunctivitis, grade 3, all arms: 0%
measured: atopic dermatitis; idiopathic pulmonary fibrosis patients; 60 mg once daily: 0%
measured: skin papilloma; idiopathic pulmonary fibrosis patients; 30 mg once daily: 0%
phase 2a trial; idiopathic pulmonary fibrosis patients; oral, 60 mg once daily, LDL increased, grade 2: 0%
phase 2a trial; patients with idiopathic pulmonary fibrosis; 30 mg once daily, endocrine disorders SOC, grade 5: 0%
phase 2a trial; idiopathic pulmonary fibrosis patients; oral, 30 mg once daily, ESR increased, grade 5: 0%
phase 2a trial; idiopathic pulmonary fibrosis patients; oral, 30 mg once daily, ESR increased, grade 2: 0%
phase 2a trial; patients with idiopathic pulmonary fibrosis; dose not given, nervous system disorders SOC, grade 3, all arms: 0%
phase 2a trial; patients with idiopathic pulmonary fibrosis; 30 mg once daily, renal and urinary disorders SOC, grade 2: 0%
phase 2a trial; patients with idiopathic pulmonary fibrosis; 30 mg once daily, skin papilloma, maximum intensity grade 4: 0%
phase 2a trial; idiopathic pulmonary fibrosis patients; oral, dose not given, urine red cells, grade 2, all arms: 0%
measured: endocrine disorders; idiopathic pulmonary fibrosis patients; 60 mg once daily: 0%
phase 2a trial; idiopathic pulmonary fibrosis patients; oral, 60 mg once daily, GLDH increased, grade 1: 0%

Block 3
Organism: Plasmodium berghei
Cell line: Huh-7
Strain: liver stage
Concentration: 10 µM
Time: 24 h
Baseline: control
Endpoint: parasite load
Cn1c(=O)c2c(ncn2C)n(C)c1=O: 108%
C[C@@H]1C[C@H]2[C@@H]3C[C@H](F)C4=CC(=O)C=C[C@]4(C)[C@@]3(F)[C@@H](O)C[C@]2(C)[C@@]1(O)C(=O)CO: 84.3%
CN1CCN(CCCN2c3ccccc3Sc3ccc(Cl)cc32)CC1: 45.4%
CC(=O)O[C@H]1C[C@@H]2CC[C@@H]3[C@H](CC[C@@]4(C)[C@H]3C[C@H]([N+]3(C)CCCCC3)[C@@H]4OC(C)=O)[C@@]2(C)C[C@@H]1[N+]1(C)CCCCC1: 108%
CCN(CC)CC(=O)Nc1c(C)cccc1C: 77.2%
O=C(O)COCCN1CCN(C(c2ccccc2)c2ccc(Cl)cc2)CC1 (stereo not shown): 105%
CN1C[C@H](C(=O)N[C@]2(C)O[C@@]3(O)[C@@H]4CCCN4C(=O)[C@H](Cc4ccccc4)N3C2=O)C[C@@H]2c3cccc4[nH]cc(c34)C[C@H]21: 73.9%
C1CCc2nnnn2CC1: 95.8%
COC(=O)C1=C(C)NC(C)=C(C(=O)OC)C1c1ccccc1[N+](=O)[O-]: 106%
CN(C)C(=N)NC(=N)N: 81.5%
CN(C)CCCN1c2ccccc2CCc2ccc(Cl)cc21: 31.4%
CN[C@H]1CC[C@@H](c2ccc(Cl)c(Cl)c2)c2ccccc21: 50.4%
CC/C(=C(/CC)c1ccc(O)cc1)c1ccc(O)cc1: 83.1%
COc1cc2c(cc1OC)C(=O)C(CC1CCN(Cc3ccccc3)CC1)C2 (stereo not shown): 95%

Single results of other studies
CC(=O)c1c(NS(C)(=O)=O)c2cc(-c3ccc(Cl)cc3)c(-c3ccc(Cl)cc3Cl)nc2n(C)c1=O  Ki (Alpha-2C adrenergic receptor (ADRA2C, Homo sapiens, UniProt P18825); binding, radioligand binding): > 10 µM

Excerpt of the above (block 3):
CN1CCN(CCCN2c3ccccc3Sc3ccc(Cl)cc32)CC1: 45.4%
CC(=O)O[C@H]1C[C@@H]2CC[C@@H]3[C@H](CC[C@@]4(C)[C@H]3C[C@H]([N+]3(C)CCCCC3)[C@@H]4OC(C)=O)[C@@]2(C)C[C@@H]1[N+]1(C)CCCCC1: 108%
CN1C[C@H](C(=O)N[C@]2(C)O[C@@]3(O)[C@@H]4CCCN4C(=O)[C@H](Cc4ccccc4)N3C2=O)C[C@@H]2c3cccc4[nH]cc(c34)C[C@H]21: 73.9%
CCN(CC)CC(=O)Nc1c(C)cccc1C: 77.2%
COc1cc2c(cc1OC)C(=O)C(CC1CCN(Cc3ccccc3)CC1)C2 (stereo not shown): 95%
CN[C@H]1CC[C@@H](c2ccc(Cl)c(Cl)c2)c2ccccc21: 50.4%
CN(C)C(=N)NC(=N)N: 81.5%
